Assay results gathered from unrelated publications.
Numbered parts are unrelated; each lists some results of a single study.

Sample 1
Target: Centromere-binding protein 1, full length, His-tagged (CBF1, Saccharomyces cerevisiae, UniProt P17106, residues 1-351)
Chain of UniProt P17106 (whole entry, looked up): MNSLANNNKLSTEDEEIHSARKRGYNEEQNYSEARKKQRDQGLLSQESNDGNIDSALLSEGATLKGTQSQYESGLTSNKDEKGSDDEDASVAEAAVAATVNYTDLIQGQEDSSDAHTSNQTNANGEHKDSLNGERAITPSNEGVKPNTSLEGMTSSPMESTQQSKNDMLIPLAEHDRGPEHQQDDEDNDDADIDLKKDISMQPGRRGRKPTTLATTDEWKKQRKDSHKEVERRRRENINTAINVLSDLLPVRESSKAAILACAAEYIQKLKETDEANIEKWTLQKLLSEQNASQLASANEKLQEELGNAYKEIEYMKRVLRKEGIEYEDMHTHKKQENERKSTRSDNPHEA
Technique: competition protein-binding microarray
Molecule type: double-stranded DNA, one strand shown
Medium: in vitro
Concentration: 2 µM
Notes: whole 60-bp probe, lowest competitor level
With: Pho4 competitor, 0.05 µM
Direction: higher = stronger binding
Strand	fluorescence intensity [a.u.]
TGAGCGCCATTAAAGCGCGTGCTGTCGTACTGGGTGGTCTTGATTCGCTTGACGCTGCTG	87.3
TCGAGAGATAAAGTACATGTGCCTAGGTAAGCTGTAGTCTTGATTCGCTTGACGCTGCTG	133
AAAAAGAAACTCCATCACGATGTAAGTACAAATGGTGTCTTGATTCGCTTGACGCTGCTG	127
CAGAGCTGAGCAGGGCACGTGGGTGCCCTCCAGGCTGTCTTGATTCGCTTGACGCTGCTG	880

Sample 2
Target: Histone acetyltransferase KAT6A, both winged helices, GST fusion (KAT6A, Homo sapiens, UniProt Q92794, residues 1-181)
Technique: protein binding microarray
Molecule type: double-stranded DNA, one strand shown
Medium: in vitro
Concentration: not given
Notes: 8-mer, flanks averaged, mean of 2 arrays, mostly near background
Relative to: not given
Direction: higher = stronger binding
Residues (chain): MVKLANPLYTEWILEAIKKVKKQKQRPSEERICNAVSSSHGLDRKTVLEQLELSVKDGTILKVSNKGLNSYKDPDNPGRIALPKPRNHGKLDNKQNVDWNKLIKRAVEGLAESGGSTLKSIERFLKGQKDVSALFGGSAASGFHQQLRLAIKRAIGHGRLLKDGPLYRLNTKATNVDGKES
Strand	E-score
ACGAAGCA	-0.107
TTAGCCAA	-0.0457
CTCAACCA	-0.0933

Sample 3
Target: Sal-like protein 4, full length isoform A (SALL4, Homo sapiens, UniProt Q9UJQ4, residues 1-1053)
Chain of UniProt Q9UJQ4 (whole entry, looked up): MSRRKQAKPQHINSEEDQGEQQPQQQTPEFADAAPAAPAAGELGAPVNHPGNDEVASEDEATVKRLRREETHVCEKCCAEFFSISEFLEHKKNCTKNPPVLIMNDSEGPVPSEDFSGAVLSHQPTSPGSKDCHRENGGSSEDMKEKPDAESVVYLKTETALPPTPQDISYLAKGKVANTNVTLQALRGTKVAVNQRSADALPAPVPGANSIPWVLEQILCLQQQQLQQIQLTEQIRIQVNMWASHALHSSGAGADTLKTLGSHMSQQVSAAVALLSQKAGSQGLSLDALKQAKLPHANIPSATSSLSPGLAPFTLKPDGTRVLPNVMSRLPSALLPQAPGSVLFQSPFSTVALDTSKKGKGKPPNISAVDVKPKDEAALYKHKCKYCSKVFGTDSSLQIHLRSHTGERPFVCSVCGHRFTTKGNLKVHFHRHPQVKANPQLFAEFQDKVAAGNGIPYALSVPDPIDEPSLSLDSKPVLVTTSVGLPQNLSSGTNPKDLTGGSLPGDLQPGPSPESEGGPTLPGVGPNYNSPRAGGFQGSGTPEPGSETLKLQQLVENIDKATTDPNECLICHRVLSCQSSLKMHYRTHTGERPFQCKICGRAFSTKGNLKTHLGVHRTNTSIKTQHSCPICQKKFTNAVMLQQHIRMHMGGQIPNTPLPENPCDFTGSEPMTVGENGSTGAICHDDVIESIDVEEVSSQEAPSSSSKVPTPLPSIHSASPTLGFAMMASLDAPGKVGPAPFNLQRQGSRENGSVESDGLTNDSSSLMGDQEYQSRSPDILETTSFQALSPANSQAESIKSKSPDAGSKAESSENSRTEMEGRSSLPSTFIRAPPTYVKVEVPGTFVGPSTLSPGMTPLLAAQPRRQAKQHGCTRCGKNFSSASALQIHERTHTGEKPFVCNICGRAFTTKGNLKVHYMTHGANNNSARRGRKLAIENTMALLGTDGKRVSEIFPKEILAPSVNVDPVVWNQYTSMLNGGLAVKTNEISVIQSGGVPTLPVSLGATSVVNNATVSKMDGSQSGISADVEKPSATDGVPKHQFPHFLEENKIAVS
Technique: universal PBM
Molecule type: double-stranded DNA, one strand shown
Medium: in vitro
Concentration: 600 nM
Notes: 8-mer, flanks averaged, mean of replicates
Direction: higher = stronger binding
Strand	E-score
CATGCTCG	-0.0477
CAGTCCCA	-0.195
CTGTAGTC	-0.0431
CTGTCAGC	-0.143

Mixed results
Substance	target	test	test system	setting	scale	endpoint	value
PhoQ, residues 284 288 289 292 302 303 NLGVHL	PhoP, residues 12 14 15 18 19 DLLYY (Escherichia coli, UniProt P23836)	Sort-seq, item: YFP reporter	E. coli	PhoQ-PhoP variant library, with: 10 µM Mg2+	relative to: high Mg2+ state, higher = stronger signaling	fold induction	12.1

For quick reference, copied from above (sample 2):
Strand	E-score
TTAGCCAA	-0.0457
